{"data": "Results gathered from unrelated publications", "JAK2": "Tyrosine-protein kinase JAK2 (JAK2, Homo sapiens, UniProt O60674)", "JAK2 JH1": "Tyrosine-protein kinase JAK2, JH1 (JAK2, Homo sapiens, UniProt O60674)", "note": "Each line is one published result; not all experiments were run side by side. Values joined by “and” are separate records of one study, mostly repeats; a detail may differ.", "sequence of UniProt O60674 (whole entry, looked up)": "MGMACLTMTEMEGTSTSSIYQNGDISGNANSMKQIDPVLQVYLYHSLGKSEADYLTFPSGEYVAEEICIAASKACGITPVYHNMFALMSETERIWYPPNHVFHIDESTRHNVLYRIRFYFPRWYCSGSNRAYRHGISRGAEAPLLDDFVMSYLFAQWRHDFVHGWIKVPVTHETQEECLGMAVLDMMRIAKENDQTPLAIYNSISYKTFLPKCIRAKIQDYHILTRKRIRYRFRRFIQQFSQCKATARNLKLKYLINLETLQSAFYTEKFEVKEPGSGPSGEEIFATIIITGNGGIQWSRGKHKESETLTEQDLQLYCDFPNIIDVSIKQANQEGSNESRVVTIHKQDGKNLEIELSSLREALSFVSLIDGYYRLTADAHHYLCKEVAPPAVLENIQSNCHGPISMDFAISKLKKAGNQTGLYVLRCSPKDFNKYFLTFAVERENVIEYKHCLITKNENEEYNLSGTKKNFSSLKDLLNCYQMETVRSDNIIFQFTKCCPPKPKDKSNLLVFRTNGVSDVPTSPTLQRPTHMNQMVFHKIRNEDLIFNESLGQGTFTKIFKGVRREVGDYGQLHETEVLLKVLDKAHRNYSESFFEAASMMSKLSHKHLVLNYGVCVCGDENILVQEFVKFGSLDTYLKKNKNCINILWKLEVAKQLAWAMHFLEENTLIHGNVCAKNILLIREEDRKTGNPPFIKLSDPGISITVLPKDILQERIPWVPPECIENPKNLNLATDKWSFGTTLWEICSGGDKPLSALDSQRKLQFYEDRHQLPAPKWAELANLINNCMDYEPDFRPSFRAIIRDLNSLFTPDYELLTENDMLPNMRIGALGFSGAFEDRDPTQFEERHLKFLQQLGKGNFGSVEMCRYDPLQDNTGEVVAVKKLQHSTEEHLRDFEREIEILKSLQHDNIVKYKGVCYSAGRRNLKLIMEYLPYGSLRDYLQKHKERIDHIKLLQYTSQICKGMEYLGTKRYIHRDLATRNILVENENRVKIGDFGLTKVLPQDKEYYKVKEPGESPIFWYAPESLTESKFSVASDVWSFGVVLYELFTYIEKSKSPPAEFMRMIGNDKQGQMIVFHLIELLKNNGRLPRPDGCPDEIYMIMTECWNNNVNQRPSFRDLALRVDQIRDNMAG"}
{"SMILES": "Cc1cnc(Nc2ccc3c(c2)CCN(C(=O)/C=C/CC(C)C)C3)nc1-c1cnn(C(C)C)c1", "target": "JAK2", "test": "ADP-Glo kinase", "scale": "relative to: IC50 JAK3 over IC50 JAK2", "quantity": "selectivity ratio", "value": "> 2.16"}
{"SMILES": "Cc1c[nH]c2nccc(-c3ccc(C(=O)N[C@@H]4c5c(F)cc(C(F)F)cc5C[C@@H]4O)cn3)c12", "target": "JAK2 JH1", "test": "binding, competition with immobilised ligand", "conditions": "3 µM", "quantity": "remaining binding", "value": "0.7%"}
{"SMILES": "O=C(O)CCC(=O)c1cccc(NS(=O)(=O)c2c[nH]c3ncccc23)c1", "target": "JAK2", "test": "kinase activity, radiometric", "conditions": "10 µM", "quantity": "remaining activity", "value": "108%"}
{"SMILES": "CC(=O)N1c2ccc(-c3ccc(CNC(=O)c4cn5cc(-c6cnc(N)nc6)nc(N6CCOCC6)c5n4)cc3)cc2CC[C@@H]1C", "target": "JAK2", "test": "KINOMEscan", "conditions": "10 µM", "quantity": "remaining binding", "value": "48%"}
{"SMILES": "Cc1cnc(Nc2ccc3c(c2)CCN(C(=O)/C=C/C(=O)C(C)C)C3)nc1-c1cnn(C(C)C)c1", "target": "JAK2", "test": "ADP-Glo kinase", "scale": "relative to: IC50 JAK3 over IC50 JAK2", "quantity": "selectivity ratio", "value": "> 2.53"}
{"SMILES": "Cc1cnc2nc1Nc1cccc(c1)COCCCCOCc1cc(ccc1OCCN1CCCC1)N2", "target": "JAK2", "test": "inhibitor, Z'-LYTE kinase", "conditions": "4.572 nM", "quantity": "inhibition", "value": "0.92% and -2.2% and -3.73%"}
{"SMILES": "C=CC(=O)N1CCc2ccc(-n3c(=O)ccc4cnc5ccc(-c6cnn(C)c6)cc5c43)cc21", "target": "JAK2", "test": "KINOMEscan", "conditions": "1 µM", "scale": "relative to: DMSO control", "quantity": "remaining binding", "value": "100%"}
{"SMILES": "Cc1cnc2nc1Nc1cccc(c1)COCc1cc(ccc1OCCN1CCOCC1)N2", "target": "JAK2", "test": "inhibitor, Z'-LYTE kinase", "conditions": "0.05081 nM", "quantity": "inhibition", "value": "6.3% and -1.72% and -0.166%"}
{"SMILES": "COc1cc(Nc2nccc(-c3cnn4nc(OC)ccc34)n2)cc(C(F)(F)F)c1", "target": "JAK2 JH1", "test": "binding, competition with immobilised ligand", "conditions": "1 µM", "quantity": "remaining binding", "value": "87%"}
{"SMILES": "CCC(CC)C(=O)/C=C/C(=O)N1CCc2cc(Nc3ncc(C)c(-c4cnn(C(C)C)c4)n3)ccc2C1", "target": "JAK2", "test": "ADP-Glo kinase", "scale": "relative to: IC50 JAK1 over IC50 JAK2", "quantity": "selectivity ratio", "value": 0.53}
{"SMILES": "COCC12C(=O)NC3C4(C(OC)CC1O)C1CC5(O)C(OC)C(O)C(OC(C)=O)(C1C5OC(=O)c1ccccc1)C3(O)C(OC)C24 (stereo not shown)", "target": "JAK2", "test": "kinase activity, inhibitor, ProQinase kinase profiling", "conditions": "25 µM", "scale": "relative to: control", "quantity": "remaining activity", "value": "101% and 99%"}
{"SMILES": "Cc1cnc2nc1Nc1cccc(c1)COC/C=C/COCc1cc(ccc1OCCN1CCOCC1)N2", "target": "JAK2", "test": "inhibitor, Z'-LYTE kinase", "conditions": "250 nM", "quantity": "inhibition", "value": "100% and 102%"}
{"SMILES": "Cc1cnc(Nc2ccc3c(c2)CCN(C(=O)/C=C/C(=O)c2ccc(Cl)cc2)C3)nc1-c1cnn(C(C)C)c1", "target": "JAK2", "test": "ADP-Glo", "scale": "relative to: IC50 JAK1 over IC50 JAK2", "quantity": "selectivity ratio", "value": "> 73.2"}
{"SMILES": "CNS(=O)(=O)Nc1nccc(Cc2c(C)c3ccc(Oc4ncccc4F)cc3oc2=O)c1F", "target": "JAK2 JH1", "test": "binding, competition with immobilised ligand", "conditions": "10 µM", "quantity": "remaining binding", "value": "92%"}
{"SMILES": "O=C=[N][Ru-4]123([n]4c5ccc(O)cc5c5c6c(c7cc(F)c[n+]1c7c54)C(=O)NC6=O)[S+]1CC[S+]2CC[S+]3CC1 (stereo not shown)", "target": "JAK2", "test": "enzyme activity", "conditions": "100 nM, human enzyme, together with: 10 µM ATP", "scale": "relative to: untreated", "quantity": "remaining activity", "value": "108%"}
{"SMILES": "COc1ccc(NC(=O)Nc2ccc3c(c2)C(=O)N(C(C)CO)CC(C)C(CN(C)Cc2ccc4c(c2)OCO4)O3)cc1 (stereo not shown)", "target": "JAK2 JH1", "test": "binding, competition with immobilised ligand", "conditions": "10 µM", "quantity": "remaining binding", "value": "98%"}
{"SMILES": "Cc1cnc2nc1Nc1cc(F)cc(c1)COC/C=C/COCc1cc(ccc1OCCN1CCCC1)N2", "target": "JAK2", "test": "inhibitor, Z'-LYTE kinase", "conditions": "12.35 nM", "quantity": "inhibition", "value": "71.2% and 70% and 72.6%"}
{"SMILES": "COc1c(OCCCN2CCOCC2)ccc2c1N=C(NC(=O)c1cnc(N)nc1)N1CCN=C21", "target": "JAK2", "test": "kinase activity, inhibitor", "conditions": "1 µM", "scale": "relative to: untreated control", "quantity": "remaining activity", "value": "116%"}
{"SMILES": "Cc1cnc(Nc2ccc3c(c2)CCN(C(=O)/C=C/C(=O)C2CCCC2)C3)nc1-c1cnn(C(C)C)c1", "target": "JAK2", "test": "ADP-Glo kinase", "scale": "relative to: IC50 JAK3 over IC50 JAK2", "quantity": "selectivity ratio", "value": "> 4.47"}
{"SMILES": "O=C(Cc1ccc(OCc2ccccc2)cc1)NC1(C(=O)O)CCN(C(=O)c2ccc(-c3cccc(Cl)c3)cc2)CC1", "target": "JAK2", "test": "enzyme activity, inhibitor", "conditions": "10 µM", "quantity": "activity vs control", "value": "116%"}
{"SMILES": "Cc1cnc(Nc2ccc3c(c2)CCN(C(=O)/C=C/C(=O)C2CCC(C)CC2)C3)nc1-c1cnn(C(C)C)c1 (stereo not shown)", "target": "JAK2", "test": "ADP-Glo kinase", "scale": "relative to: IC50 JAK3 over IC50 JAK2", "quantity": "selectivity ratio", "value": "> 14.6"}
{"SMILES": "CN1CCN(Cc2ccc(NC(=O)c3cccc(C#Cc4cnc(N)c5ncccc45)c3)cc2C(F)(F)F)CC1", "target": "JAK2 JH1", "test": "cell-free assay, competition with immobilised ligand", "conditions": "0.5 µM", "quantity": "remaining binding", "value": "3.6%"}
{"note": "A few entries again:"}
{"SMILES": "O=C(O)CCC(=O)c1cccc(NS(=O)(=O)c2c[nH]c3ncccc23)c1", "target": "JAK2", "test": "kinase activity, radiometric", "conditions": "10 µM", "quantity": "remaining activity", "value": "108%"}
{"SMILES": "CC(=O)N1c2ccc(-c3ccc(CNC(=O)c4cn5cc(-c6cnc(N)nc6)nc(N6CCOCC6)c5n4)cc3)cc2CC[C@@H]1C", "target": "JAK2", "test": "KINOMEscan", "conditions": "10 µM", "quantity": "remaining binding", "value": "48%"}
{"SMILES": "Cc1cnc(Nc2ccc3c(c2)CCN(C(=O)/C=C/C(=O)C(C)C)C3)nc1-c1cnn(C(C)C)c1", "target": "JAK2", "test": "ADP-Glo kinase", "scale": "relative to: IC50 JAK3 over IC50 JAK2", "quantity": "selectivity ratio", "value": "> 2.53"}
